Assay results from different studies.
Compare with care: the assays were run in different laboratories.
Nr3c1: Glucocorticoid receptor (Nr3c1, Rattus norvegicus, UniProt P06536)
Chain of UniProt P06536 (whole entry, looked up): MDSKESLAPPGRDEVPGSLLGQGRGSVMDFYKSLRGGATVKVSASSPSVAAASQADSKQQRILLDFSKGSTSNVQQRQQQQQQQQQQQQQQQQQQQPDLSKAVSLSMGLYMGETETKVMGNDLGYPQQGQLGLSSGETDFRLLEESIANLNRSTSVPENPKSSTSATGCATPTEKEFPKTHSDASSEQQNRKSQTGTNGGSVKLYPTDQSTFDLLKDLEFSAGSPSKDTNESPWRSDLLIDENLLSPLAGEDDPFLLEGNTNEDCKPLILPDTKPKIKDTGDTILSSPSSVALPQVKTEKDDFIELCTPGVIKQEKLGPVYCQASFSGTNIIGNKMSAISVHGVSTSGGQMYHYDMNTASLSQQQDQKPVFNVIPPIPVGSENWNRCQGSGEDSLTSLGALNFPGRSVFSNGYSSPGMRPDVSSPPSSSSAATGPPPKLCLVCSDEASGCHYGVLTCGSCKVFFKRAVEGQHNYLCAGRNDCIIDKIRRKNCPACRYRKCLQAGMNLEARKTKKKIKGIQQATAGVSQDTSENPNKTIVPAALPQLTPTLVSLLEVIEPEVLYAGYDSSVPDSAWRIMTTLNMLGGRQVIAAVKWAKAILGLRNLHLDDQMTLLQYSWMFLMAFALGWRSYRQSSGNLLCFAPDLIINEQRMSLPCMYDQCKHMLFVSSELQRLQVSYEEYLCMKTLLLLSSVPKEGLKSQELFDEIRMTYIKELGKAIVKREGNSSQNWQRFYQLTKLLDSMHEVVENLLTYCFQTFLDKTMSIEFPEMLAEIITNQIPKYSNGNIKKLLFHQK
CTSK: Cathepsin K (CTSK, Homo sapiens, UniProt P43235)
Chain of UniProt P43235 (whole entry, looked up): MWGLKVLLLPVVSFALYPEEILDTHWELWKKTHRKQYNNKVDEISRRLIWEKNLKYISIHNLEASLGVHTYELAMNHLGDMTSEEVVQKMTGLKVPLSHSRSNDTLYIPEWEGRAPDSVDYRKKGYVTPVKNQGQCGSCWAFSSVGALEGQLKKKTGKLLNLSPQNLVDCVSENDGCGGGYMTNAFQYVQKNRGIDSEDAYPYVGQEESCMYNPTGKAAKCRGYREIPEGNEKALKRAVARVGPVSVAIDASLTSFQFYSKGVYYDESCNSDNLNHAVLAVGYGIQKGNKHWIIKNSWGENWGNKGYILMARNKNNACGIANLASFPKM
Chain of UniProt P06401 (whole entry, looked up): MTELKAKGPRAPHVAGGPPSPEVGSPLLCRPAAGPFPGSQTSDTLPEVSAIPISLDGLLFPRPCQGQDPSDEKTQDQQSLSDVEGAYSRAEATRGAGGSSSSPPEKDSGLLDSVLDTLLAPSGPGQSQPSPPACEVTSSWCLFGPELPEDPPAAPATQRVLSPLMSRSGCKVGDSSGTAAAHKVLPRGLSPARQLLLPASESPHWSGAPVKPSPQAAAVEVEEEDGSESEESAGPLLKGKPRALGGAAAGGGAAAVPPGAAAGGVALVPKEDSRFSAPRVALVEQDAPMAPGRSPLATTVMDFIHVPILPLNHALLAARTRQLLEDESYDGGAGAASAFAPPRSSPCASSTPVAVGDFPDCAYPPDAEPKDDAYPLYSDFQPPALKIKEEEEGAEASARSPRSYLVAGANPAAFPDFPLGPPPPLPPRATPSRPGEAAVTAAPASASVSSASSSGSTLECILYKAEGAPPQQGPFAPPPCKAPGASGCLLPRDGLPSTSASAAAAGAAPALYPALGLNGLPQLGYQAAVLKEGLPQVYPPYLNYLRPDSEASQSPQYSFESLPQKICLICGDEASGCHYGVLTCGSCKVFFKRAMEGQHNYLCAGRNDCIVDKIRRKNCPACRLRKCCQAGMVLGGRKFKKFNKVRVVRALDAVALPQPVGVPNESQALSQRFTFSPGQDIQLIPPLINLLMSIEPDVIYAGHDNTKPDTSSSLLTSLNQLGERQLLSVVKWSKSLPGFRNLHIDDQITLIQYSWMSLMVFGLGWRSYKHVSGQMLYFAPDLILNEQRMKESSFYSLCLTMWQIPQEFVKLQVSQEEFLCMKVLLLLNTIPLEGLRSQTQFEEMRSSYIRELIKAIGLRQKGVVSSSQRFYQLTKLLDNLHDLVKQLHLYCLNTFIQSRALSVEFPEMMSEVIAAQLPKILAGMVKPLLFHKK
Chain of UniProt Q3UFF7 (whole entry, looked up): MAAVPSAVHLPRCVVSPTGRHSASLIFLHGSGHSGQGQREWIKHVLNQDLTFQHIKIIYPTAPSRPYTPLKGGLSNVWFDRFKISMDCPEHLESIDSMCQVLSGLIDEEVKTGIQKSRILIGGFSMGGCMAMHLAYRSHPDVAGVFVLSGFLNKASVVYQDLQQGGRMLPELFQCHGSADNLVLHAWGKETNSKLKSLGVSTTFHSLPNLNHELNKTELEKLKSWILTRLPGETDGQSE
Chain of UniProt P10721 (whole entry, looked up): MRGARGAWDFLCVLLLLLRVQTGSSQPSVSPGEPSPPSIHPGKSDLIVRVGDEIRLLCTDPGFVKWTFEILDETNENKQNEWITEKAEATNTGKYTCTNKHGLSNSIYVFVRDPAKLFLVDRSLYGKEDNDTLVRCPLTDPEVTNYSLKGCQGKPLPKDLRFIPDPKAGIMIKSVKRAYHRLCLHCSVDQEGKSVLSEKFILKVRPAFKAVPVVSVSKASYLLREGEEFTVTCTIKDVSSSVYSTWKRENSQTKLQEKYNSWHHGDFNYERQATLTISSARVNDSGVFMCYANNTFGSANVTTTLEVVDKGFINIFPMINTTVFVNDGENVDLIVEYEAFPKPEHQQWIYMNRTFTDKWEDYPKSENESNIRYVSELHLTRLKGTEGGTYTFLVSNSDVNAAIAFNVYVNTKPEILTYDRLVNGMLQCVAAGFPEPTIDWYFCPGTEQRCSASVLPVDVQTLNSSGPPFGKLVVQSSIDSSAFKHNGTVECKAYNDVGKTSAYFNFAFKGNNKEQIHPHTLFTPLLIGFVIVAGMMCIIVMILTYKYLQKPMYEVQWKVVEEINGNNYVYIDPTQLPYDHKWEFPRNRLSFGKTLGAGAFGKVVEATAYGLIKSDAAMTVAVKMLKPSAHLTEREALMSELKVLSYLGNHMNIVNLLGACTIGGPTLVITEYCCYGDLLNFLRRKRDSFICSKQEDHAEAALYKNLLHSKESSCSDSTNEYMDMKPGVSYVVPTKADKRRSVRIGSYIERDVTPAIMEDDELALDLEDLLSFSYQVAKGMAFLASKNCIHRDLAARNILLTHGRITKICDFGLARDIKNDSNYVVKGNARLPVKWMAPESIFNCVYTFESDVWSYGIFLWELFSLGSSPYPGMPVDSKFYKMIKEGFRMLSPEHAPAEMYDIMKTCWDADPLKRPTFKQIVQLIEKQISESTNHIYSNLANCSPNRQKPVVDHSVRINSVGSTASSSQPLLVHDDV
Chain of UniProt P46154 (whole entry, looked up): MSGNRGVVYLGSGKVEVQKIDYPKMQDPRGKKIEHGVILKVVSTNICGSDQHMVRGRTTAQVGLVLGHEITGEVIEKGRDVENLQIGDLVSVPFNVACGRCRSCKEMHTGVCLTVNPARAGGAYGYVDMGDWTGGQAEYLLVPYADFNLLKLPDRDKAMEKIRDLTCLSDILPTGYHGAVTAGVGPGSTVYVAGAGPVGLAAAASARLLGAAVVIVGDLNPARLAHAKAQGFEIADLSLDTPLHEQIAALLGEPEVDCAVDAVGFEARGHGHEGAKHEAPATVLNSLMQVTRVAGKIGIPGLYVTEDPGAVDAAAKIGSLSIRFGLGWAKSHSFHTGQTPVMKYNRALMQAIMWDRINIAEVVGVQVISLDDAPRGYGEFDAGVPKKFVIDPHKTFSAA

CCCC(CC)Sc1nc2c([nH]1)c(=S)n(C)c(=O)n2C (stereo not shown)
remaining activity (Nr3c1; reporter gene, antagonist, MMTV-luciferase; T47D/A1-2; 10 µM, 24 h, with: 5 nM dexamethasone; relative to: maximal activity): 71%

CC1(C)CCN(Cc2ccc(C(=O)NC[C@]3(O)CCCN(c4cc(NCc5ccccc5)ncn4)C3)c(O)c2)CC1
remaining activity (Histone-lysine N-methyltransferase PRDM9 (PRDM9, Homo sapiens, UniProt Q9NQV7); enzyme activity, inhibitor, radiometric; 10 µM): 101%

Cc1nc2ccc(S(=O)(=O)n3nc(SCc4ccc(Cl)cc4)nc3N)cc2s1
remaining activity (Lysophospholipase-like protein 1 (Mus musculus, UniProt Q3UFF7); gel-based ABPP; mouse, liver and kidney; intraperitoneal, 100 mg/kg; relative to: vehicle): 1.8 to 2 fold

CC(C)(C)OC(=O)NC(Cc1cccc(Cl)c1)C(=O)NCC=CS(=O)(=O)c1ccccc1 (stereo not shown)
remaining activity (CTSK; enzyme activity, inhibitor, fluorescence; 5 µM): 79%

CC(=O)N[C@@H](Cc1c[nH]c2ccccc12)C(=O)N[C@@H](Cc1c[nH]c2ccccc12)C(=O)N[C@@H](Cc1c[nH]c2ccccc12)C(=O)N[C@@H](Cc1c[nH]c2ccccc12)C(=O)N[C@@H](Cc1c[nH]c2ccccc12)C(=O)N[C@@H](Cc1c[nH]c2ccccc12)C(=O)NCCCC[C@@H]1NC(=O)[C@H](CCCNC(=N)N)NC(=O)[C@H](CCCNC(=N)N)NC(=O)[C@H](CCCNC(=N)N)NC(=O)[C@H](CCCNC(=N)N)NC(=O)[C@H](CCCNC(=N)N)NC(=O)[C@H](CCCNC(=N)N)NC1=O
remaining activity (Protein kinase C alpha type (PRKCA, Homo sapiens, UniProt P17252); enzyme activity, inhibitor; 5 µM): 6.8%

CCSc1nc2c([nH]1)c(=O)n(C)c(=O)n2C
remaining activity (Progesterone receptor (PGR, Homo sapiens, UniProt P06401); reporter gene, antagonist, MMTV-luciferase; T47D/A1-2; 10 µM, 24 h, with: 5 nM progesterone; relative to: maximal activity): 60%

COC(=O)CN1CCCc2cc3cc(C(=O)NC(Cc4cccc(Cl)c4)C(=O)NCC=CS(=O)(=O)c4ccccc4)c(=O)oc3cc21 (stereo not shown)
remaining activity (CTSK; enzyme activity, inhibitor, fluorescence; 5 µM): 17%

O=C(O)c1ccnc(C(=O)O)c1Br
remaining activity (fdhA (Pseudomonas putida, UniProt P46154); inhibitor, spectrophotometric; 200 µM): 100%

CCCCCCCCSc1nc2c([nH]1)c(=O)n(C)c(=S)n2C
remaining activity (Nr3c1; reporter gene, antagonist, MMTV-luciferase; T47D/A1-2; 10 µM, 24 h, with: 5 nM dexamethasone; relative to: maximal activity): 91%

N=C(N)NCCC[C@@H]1NC(=O)[C@H](Cc2c[nH]c3ccccc23)NC(=O)[C@H](CCCNC(=N)N)NC(=O)[C@H](Cc2c[nH]c3ccccc23)NC(=O)[C@H](CCCNC(=N)N)NC(=O)[C@H](Cc2c[nH]c3ccccc23)NC(=O)[C@H](CCCNC(=N)N)NC(=O)[C@H](Cc2c[nH]c3ccccc23)NC(=O)[C@H](CCCNC(=N)N)NC(=O)[C@H](Cc2c[nH]c3ccccc23)NC(=O)[C@H](CCCNC(=N)N)NC(=O)[C@H](Cc2c[nH]c3ccccc23)NC(=O)[C@H](CCCNC(=N)N)NC(=O)[C@H](Cc2c[nH]c3ccccc23)NC(=O)[C@H](CCCNC(=N)N)NC(=O)[C@H](Cc2c[nH]c3ccccc23)NC(=O)[C@H](CCCNC(=N)N)NC(=O)[C@H](Cc2c[nH]c3ccccc23)NC1=O
remaining activity (Mast/stem cell growth factor receptor Kit (KIT, Homo sapiens, UniProt P10721); enzyme activity, inhibitor; 5 µM): 38.8%

Repeated from above:
CCCC(CC)Sc1nc2c([nH]1)c(=S)n(C)c(=O)n2C (stereo not shown)
remaining activity (Nr3c1; reporter gene, antagonist, MMTV-luciferase; T47D/A1-2; 10 µM, 24 h, with: 5 nM dexamethasone; relative to: maximal activity): 71%
